# Measured values of several laboratories.
# A part holds a random share of what one study measured. Positions count from the first letter of the parent shown.

# Series 1 — target: CEP164, C-terminal peptide (human); method: DHFR complementation, deep sequencing; medium: yeast; relative to: wild type; reading: higher = weaker binding
# Notes: single substitutions, model-inferred values
# Starting sequence: PDZK1, PDZ domain 2 (human); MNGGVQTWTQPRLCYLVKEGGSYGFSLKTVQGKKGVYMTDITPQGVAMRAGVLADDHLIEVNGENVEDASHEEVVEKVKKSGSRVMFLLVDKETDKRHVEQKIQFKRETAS; partner HNRVKVYRF
Variant,binding free energy change
T109V,-0.148 kcal/mol
L88W,0.0959 kcal/mol
V85K,1.98 kcal/mol
V30C,0.0646 kcal/mol
I59V,0.165 kcal/mol
K28A,-0.411 kcal/mol
E100H,-0.064 kcal/mol
K79F,1.09 kcal/mol
G35L,0.764 kcal/mol
Q10N,0.0304 kcal/mol
V74E,1.11 kcal/mol
N62P,0.649 kcal/mol
T109Y,-0.13 kcal/mol
M48E,-0.279 kcal/mol
K77L,0.0324 kcal/mol
V36E,0.624 kcal/mol

# Series 2 — method: protein binding microarray; molecule type: double-stranded DNA, one strand shown; medium: in vitro; tested at: not given; relative to: not given; reading: higher = stronger binding
# Target: Histone acetyltransferase KAT6A, winged helix 2, GST fusion (KAT6A, Homo sapiens, UniProt Q92794, residues 85-181)
# Notes: 8-mer, flanks averaged, mean of 2 arrays, mostly near background
# Target sequence (chain): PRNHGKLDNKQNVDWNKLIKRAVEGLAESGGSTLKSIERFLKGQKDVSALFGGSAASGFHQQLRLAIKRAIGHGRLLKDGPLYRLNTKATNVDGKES
Oligonucleotide,E-score
CCCCCACG,-0.0983
CAGTACAC,0.0182
CCAGGGGA,0.0358
ACGACATA,-0.0573
AGGGAACG,-0.0593
AGCCGAAA,0.08
ATACAAAG,0.197
ACTTACCC,-0.114
CGTAGGTC,-0.0816
CGCTCCCC,0.0194
ATATTGCC,-0.0587
GGGTGAAA,0.075
GTTTAGTA,-0.0343
TTGCTAAA,0.136
GAATGGTA,-0.134
CTTATATC,-0.0899
CCCCATGA,0.046
AGCAGTTA,-0.0527
GTTGTCCA,-0.138
AGTTGATG,0.0775

# Series 3 — target: CCNA1, cyclin fold, Cln2 fusion (human); method: yeast growth competition, sequencing; medium: yeast; notes: weak parent motif; relative to: not given; reading: higher = stronger binding
# Starting sequence: RP1L1 docking peptide (human); TLGLGPLSFTLED; partner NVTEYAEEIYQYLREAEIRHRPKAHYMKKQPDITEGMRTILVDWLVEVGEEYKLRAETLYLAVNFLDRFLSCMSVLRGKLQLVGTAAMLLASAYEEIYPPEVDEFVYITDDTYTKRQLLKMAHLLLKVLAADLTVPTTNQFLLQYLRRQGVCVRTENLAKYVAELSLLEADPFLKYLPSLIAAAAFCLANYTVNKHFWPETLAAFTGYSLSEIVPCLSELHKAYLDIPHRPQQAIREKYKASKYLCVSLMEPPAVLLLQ
Variant,normalised enrichment score
S8A,-0.493
T1A,-0.559
L4A,-0.241
G5A,-0.563
D13A,-0.583
G3A,-0.689
E12A,-0.467

# Series 4 — method: RNA Bind-n-Seq; molecule type: RNA; medium: in vitro; tested at: 365 nM; relative to: no-protein control; reading: higher = stronger binding
# Target: RNA binding protein fox-1 homolog 2, RRM domain, GST-SBP tag (RBFOX2, Homo sapiens, UniProt O43251-10, residues 100-194)
# Notes: natural RNA segment, single round, ends assumed
# Construct (chain): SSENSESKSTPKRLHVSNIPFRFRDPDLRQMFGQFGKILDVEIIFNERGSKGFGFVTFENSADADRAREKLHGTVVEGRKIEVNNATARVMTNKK
Oligonucleotide,RBNS enrichment (R)
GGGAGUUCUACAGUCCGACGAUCAAGACCUUGGAUUUUUUUAAGUAACUUUAUAUCAGAAAUGAUACUGCAUCUUUAUAUUUUUAAAAUUGUAUUGCUGCUCAAGAAUGGUACCCUCUUGUCAAAAAGGCAUAUGGAAUUCUCGGGUGCCAA,0.777
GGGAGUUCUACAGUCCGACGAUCCCCCCACCCACCUGGGCACCAUGGCCCUCCUCCAAUGGGUAAGUCAGUACCUGGGAAGUACGCCUGUGGGCUCUGGGGUCUAUCGCCUGCAUCAAGGAAAAGGUAUGAUGUGGAAUUCUCGGGUGCCAA,3.01
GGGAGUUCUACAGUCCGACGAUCUGAGAAAUUGGCAUUUCUACAGCUGAAAUUCAAUGUAUCUGUUAGAGAUGUCUGGAAGGGUUACUUAGCCAAAUUUUACUCAAGCCAAUUAGGAGCUGAUAUUAUCAGUUUGGAAUUCUCGGGUGCCAA,0.308
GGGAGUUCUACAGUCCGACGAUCAGACAUGCAAAGCAUUCUUUUGCAUGUCUUUAUUUAAUUGUGGUUUUAUUAUCAAAAUUAUAUUUCUGAUAAAAUAUUUUAAUUUUGAGGUAAUCCUUACAAAAUGAAGGUGGAAUUCUCGGGUGCCAA,0.732
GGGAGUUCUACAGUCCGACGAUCUUUGGGCUGCUGGGGCUGAGCUGUCUGCUUGAUGCUGACAGACUCCUAGUGUCAGCUCCCAGGCCGCCUUAGAGCUGCUCAUUCCUGAAUGACUGGCUCCCCUGCCCUUUUGGAAUUCUCGGGUGCCAA,0.272
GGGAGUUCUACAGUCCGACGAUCAAUGGACCCUUUUGCUUUUCUGAUUUUUAGUUCUGACAUGUAUAUAUUGCUUCAGUAGAGCCACAAUAUGUAUCUUUGCUGUAAAGUGCAAGGAAAUUUUAAAUUCUGGGUGGAAUUCUCGGGUGCCAA,0.851
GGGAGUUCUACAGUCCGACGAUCAACGCCACCUUCUGAGGAGAGCUCCACCCUCCUCUUCUCCUAACUCCAUCUGAUCGUCCUUUCAGUUUCCCCUUCACCACUGGAUCUCGAGGAGGAGAUGGCCUAGUGUUUGGAAUUCUCGGGUGCCAA,0.377
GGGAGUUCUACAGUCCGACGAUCAAGCCUAAUUGUAGUUCGUAACAAUUUGUCAGUACGUACUAAUUGCCUUAUUCUUCAGCUAGUGGUUUAUAAAGAGGCUGCAUAGAAAGUUUUACACAUGGAAGCAGCUGUGGAAUUCUCGGGUGCCAA,0.552

# Series 5 — target: OGT, full length, His-tagged (human); method: phage display, sequencing; medium: in vitro; tested at: 1 µg OGT; relative to: input library; reading: higher = stronger binding; starting sequence: peptide; VAYPNSYMPKYQIST
# Notes: single substitutions, 15-mer displayed peptide, unchanged parent 6.14
Variant,fold enrichment [fold]
I13E,0.927
T15R,3.01
V1A,4.41
K10A,2.23
N5M,8.97
S6W,3.08
N5R,3.64
P9L,2.69
T15P,3.79
S14R,8.49
Q12M,1.55
I13Q,0.718
Y11M,0.686
I13Y,0.795
M8D,0.95
P4W,5.72
A2S,4.82

# Other studies, line by line
Substance,target,assay,system,conditions,scale,endpoint,result
"PhoQ, residues 284 288 289 292 302 303 NLMGRA","PhoP, residues 12 14 15 18 19 NQFFI (Escherichia coli, UniProt P23836)","Sort-seq, measured: YFP reporter",E. coli,"PhoQ-PhoP variant library, together with: 10 µM Mg2+","relative to: high Mg2+ state, higher = stronger signaling",fold induction,12.5
